Assay results gathered from unrelated publications.
Every numbered part comes from another study and shows a few of its results, in no order.

Set 1
Target: Histone acetyltransferase KAT6A, both winged helices, GST fusion (KAT6A, Homo sapiens, UniProt Q92794, residues 1-181)
Technique: protein binding microarray
Molecule type: double-stranded DNA, one strand shown
Sample: in vitro
Tested at: not given
Notes: 8-mer, flanks averaged, mean of 2 arrays, mostly near background
Relative to: not given
Reading: higher = stronger binding
Residues (chain): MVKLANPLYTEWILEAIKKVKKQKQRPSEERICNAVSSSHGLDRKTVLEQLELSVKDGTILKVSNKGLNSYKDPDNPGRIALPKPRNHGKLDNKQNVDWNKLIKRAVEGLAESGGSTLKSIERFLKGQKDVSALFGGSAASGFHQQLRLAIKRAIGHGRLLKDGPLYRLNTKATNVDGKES
`CGACTGGC` has an E-score of -0.0228.
`CTCGCGCC` gave an E-score of 0.246.
`TGCAGACA` gave an E-score of -0.122.
With `GGGTAAAC` the E-score was 0.0173.
For `ATAGGCGC`, the E-score was 0.173.
With `GACGAAGC` the E-score was 0.0206.

Set 2
Target: Interferon regulatory factor 7, full length, phosphomimetic (IRF7, Homo sapiens, UniProt Q92985, residues 1-503, S471D/S472D/S475D/S476D/S477D/S483D/S484D/S487D)
Technique: protein-binding microarray
Molecule type: double-stranded DNA, one strand shown
Sample: in vitro
Tested at: 2200 nM top
Notes: 60-bp whole probe
Added: salmon DNA 0.4 mg/ml
Relative to: random background probes
Reading: higher = stronger binding
Shared flanks, not repeated: GCCTAGCAC … GTCTTGATTCGCTTGACGCTGCTG
Residues (chain): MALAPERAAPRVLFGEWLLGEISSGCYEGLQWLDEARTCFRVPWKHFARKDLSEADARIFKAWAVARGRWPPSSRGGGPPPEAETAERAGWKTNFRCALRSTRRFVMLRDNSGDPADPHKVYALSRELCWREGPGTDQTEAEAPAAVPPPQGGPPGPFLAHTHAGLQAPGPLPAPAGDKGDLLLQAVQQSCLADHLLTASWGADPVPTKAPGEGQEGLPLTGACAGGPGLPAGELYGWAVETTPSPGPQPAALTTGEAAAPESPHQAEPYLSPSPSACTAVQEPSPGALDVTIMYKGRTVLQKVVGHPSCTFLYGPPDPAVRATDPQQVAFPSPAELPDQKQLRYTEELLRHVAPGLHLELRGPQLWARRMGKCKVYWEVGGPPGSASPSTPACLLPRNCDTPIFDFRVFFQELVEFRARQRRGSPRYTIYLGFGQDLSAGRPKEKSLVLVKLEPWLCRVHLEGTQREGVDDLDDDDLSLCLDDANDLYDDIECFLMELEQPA
`ACATCTCTCTTAAATAGGGACGTGCTA` — result for “fitted relative affinity”: 0.401 z-score.
Under “fitted relative affinity”, `GACGGTCTGGACACTGGGGACGTGCTA` is recorded as -0.599 z-score.
`TTAGGTTTCCTTATCCTTAAGTGCTAG` — result for “fitted relative affinity”: 2.09 z-score.
`GAGAGAGCTTGTCTGCAGCCGTGCTAG` — result for “fitted relative affinity”: -0.526 z-score.
Under “fitted relative affinity”, `GACGAACTGGGGTATCGGGACGTGCTA` is recorded as -0.409 z-score.
`GACGGTATCGACTATCGGGAGGTGCTA`: “fitted relative affinity” -0.39 z-score.
`TTAGGTATCGGGTTTCGGCTAGTGCTA`: “fitted relative affinity” 1.67 z-score.
Under “fitted relative affinity”, `TCAATTTTTTTTTTCATACTGTGCTAG` is recorded as 1.44 z-score.

Set 3
Target: Sal-like protein 4, full length isoform A (SALL4, Homo sapiens, UniProt Q9UJQ4, residues 1-1053)
Sequence of UniProt Q9UJQ4 (whole entry, looked up): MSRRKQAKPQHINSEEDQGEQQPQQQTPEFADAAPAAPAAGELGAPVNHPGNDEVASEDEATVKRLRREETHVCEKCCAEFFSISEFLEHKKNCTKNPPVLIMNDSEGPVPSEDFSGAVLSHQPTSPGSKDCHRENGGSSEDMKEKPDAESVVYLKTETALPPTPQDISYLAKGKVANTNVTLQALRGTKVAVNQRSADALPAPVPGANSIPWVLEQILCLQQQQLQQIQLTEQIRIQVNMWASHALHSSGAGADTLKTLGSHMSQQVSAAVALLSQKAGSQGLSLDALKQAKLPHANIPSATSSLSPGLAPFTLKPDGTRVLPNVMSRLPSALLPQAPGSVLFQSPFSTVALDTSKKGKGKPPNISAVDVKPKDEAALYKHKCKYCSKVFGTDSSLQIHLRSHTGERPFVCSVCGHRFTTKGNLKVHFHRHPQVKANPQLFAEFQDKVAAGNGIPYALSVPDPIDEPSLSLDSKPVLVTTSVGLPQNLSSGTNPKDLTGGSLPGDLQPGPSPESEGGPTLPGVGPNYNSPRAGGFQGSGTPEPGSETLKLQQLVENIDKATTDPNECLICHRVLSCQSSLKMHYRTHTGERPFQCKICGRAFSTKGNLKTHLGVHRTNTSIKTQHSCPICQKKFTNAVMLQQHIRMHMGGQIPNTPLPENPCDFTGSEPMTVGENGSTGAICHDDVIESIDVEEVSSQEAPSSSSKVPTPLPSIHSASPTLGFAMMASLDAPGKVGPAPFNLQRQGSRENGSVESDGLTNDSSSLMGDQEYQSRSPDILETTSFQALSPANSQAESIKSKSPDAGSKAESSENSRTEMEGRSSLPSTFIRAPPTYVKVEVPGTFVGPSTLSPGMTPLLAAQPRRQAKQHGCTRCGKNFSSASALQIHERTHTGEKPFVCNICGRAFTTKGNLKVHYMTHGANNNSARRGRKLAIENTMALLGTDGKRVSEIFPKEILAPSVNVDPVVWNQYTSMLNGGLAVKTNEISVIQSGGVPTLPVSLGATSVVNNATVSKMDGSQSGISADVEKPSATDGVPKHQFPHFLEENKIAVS
Technique: universal PBM
Molecule type: double-stranded DNA, one strand shown
Sample: in vitro
Tested at: 600 nM
Notes: 8-mer, flanks averaged, mean of replicates
Reading: higher = stronger binding
`AACAAAGC` gave an E-score of 0.157.
With `CTCGCGCC` the E-score was -0.342.
The E-score of `CACCGGAC` is reported as -0.377.
With `ACTCTCAG` the E-score was 0.00166.
`GGCGAAAA` gave an E-score of 0.0225.
With `ATGGGAGA` the E-score was 0.0841.
`CTGGGTGA` gave an E-score of -0.165.
`GATGACCC` has an E-score of -0.0831.

Single results of other studies
`PhoQ, residues 284 288 289 292 302 303 SMMNNA` has a fold induction of 2.37 (PhoP, residues 12 14 15 18 19 LHHSG (Escherichia coli, UniProt P23836); Sort-seq, item: YFP reporter; E. coli; PhoQ-PhoP variant library, added: 10 µM Mg2+; relative to: high Mg2+ state, higher = stronger signaling).

Repeated from above (set 2):
Under “fitted relative affinity”, `GACGGTCTGGACACTGGGGACGTGCTA` is recorded as -0.599 z-score.
`TTAGGTTTCCTTATCCTTAAGTGCTAG` — result for “fitted relative affinity”: 2.09 z-score.
`GAGAGAGCTTGTCTGCAGCCGTGCTAG` — result for “fitted relative affinity”: -0.526 z-score.
Under “fitted relative affinity”, `GACGAACTGGGGTATCGGGACGTGCTA` is recorded as -0.409 z-score.
